Published values from different studies.
Numbered parts are unrelated; each lists some results of a single study.

Sample 1
Target: Prothrombin, mature alpha-thrombin (F2, Homo sapiens, UniProt P00734)
Technique: aptamer microarray, sandwich
Form: DNA with 2'F-ANA
Medium: in vitro
Tested at: 200 nM
Setting: whole 15-mer aptamer, many near background
With: Cy3 exosite-II aptamer, 400 nM
Reading: higher = stronger binding
Measurement: mean fluorescence intensity
Sequence: GGTTGGTGTGGTTGG
2'F-ANA at 1 2 6 7 11 12 13 14 15: 63.9 a.u.
2'F-ANA at 2 4 6 9 10 12 15: 105 a.u.
2'F-ANA at 1 6 8 10 11 13 14 15: 51 a.u.
2'F-ANA at 2 3 4 6 8 9 13 14 15: 192 a.u.
2'F-ANA at 1 4 5 6 8 10 15: 46.9 a.u.
2'F-ANA at 1 3 5 6 9 12 13 14 15: 55.2 a.u.
2'F-ANA at 3 4 6 7 10 11: 268 a.u.
2'F-ANA at 2 5 7 9 10 11 13 14 15: 45.2 a.u.
2'F-ANA at 1 7 8 13 14 15: 69.3 a.u.
2'F-ANA at 4 5 7 10 13: 45.4 a.u.
2'F-ANA at 4 6 8 9 15: 269 a.u.
2'F-ANA at 1 8 10 11 14: 49.3 a.u.
2'F-ANA at 1 4 6 8 9 10 11 13 14 15: 68.2 a.u.
2'F-ANA at 3 4 5 6 8 9 10 11 12 13 14 15: 51.4 a.u.
2'F-ANA at 1 5 7 9 13 14: 42.4 a.u.
2'F-ANA at 2 4 5 6 9 10 12 13 15: 101 a.u.
2'F-ANA at 1 2 3 5 6 8 10 15: 81.6 a.u.
2'F-ANA at 2 4 8 9 12 13: 431 a.u.
2'F-ANA at 2 5 8 9 11 12 13 15: 81.1 a.u.
2'F-ANA at 2 3 4 5 6 7 8 10 14: 100 a.u.
2'F-ANA at 6 7 8 11 13 14: 184 a.u.
2'F-ANA at 2 4 7 8 9 14: 117 a.u.
2'F-ANA at 1 4 7 10 12 13: 52.9 a.u.

Sample 2
Target: Sal-like protein 4, full length isoform A (SALL4, Homo sapiens, UniProt Q9UJQ4, residues 1-1053)
Sequence of UniProt Q9UJQ4 (whole entry, looked up): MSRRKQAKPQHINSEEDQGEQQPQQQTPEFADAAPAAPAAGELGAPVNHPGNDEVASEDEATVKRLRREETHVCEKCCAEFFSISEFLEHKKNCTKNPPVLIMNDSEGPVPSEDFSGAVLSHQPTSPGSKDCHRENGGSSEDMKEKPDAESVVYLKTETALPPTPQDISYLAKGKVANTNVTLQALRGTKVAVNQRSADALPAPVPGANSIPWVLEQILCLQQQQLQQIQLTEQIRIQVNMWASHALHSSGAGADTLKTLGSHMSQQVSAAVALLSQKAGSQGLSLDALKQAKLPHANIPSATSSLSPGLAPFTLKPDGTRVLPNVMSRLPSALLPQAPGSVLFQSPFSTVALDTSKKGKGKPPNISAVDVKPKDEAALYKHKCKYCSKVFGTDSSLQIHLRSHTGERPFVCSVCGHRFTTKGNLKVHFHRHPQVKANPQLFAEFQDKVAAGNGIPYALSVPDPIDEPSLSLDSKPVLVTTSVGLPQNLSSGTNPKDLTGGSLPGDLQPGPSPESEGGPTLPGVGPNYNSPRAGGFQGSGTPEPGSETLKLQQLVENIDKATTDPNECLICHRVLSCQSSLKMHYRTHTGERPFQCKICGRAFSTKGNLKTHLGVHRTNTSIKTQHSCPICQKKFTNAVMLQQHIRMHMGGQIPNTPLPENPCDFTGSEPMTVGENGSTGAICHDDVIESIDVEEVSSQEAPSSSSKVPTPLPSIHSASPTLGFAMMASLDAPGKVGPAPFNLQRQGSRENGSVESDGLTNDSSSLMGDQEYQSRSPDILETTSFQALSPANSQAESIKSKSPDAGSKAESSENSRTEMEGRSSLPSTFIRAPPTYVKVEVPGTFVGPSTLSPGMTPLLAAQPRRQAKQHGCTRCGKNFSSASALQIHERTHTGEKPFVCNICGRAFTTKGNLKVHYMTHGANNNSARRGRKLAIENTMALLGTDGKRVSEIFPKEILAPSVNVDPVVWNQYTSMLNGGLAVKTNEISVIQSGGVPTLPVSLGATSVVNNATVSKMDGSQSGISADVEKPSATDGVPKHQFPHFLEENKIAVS
Technique: universal PBM
Form: double-stranded DNA, one strand shown
Medium: in vitro
Tested at: 600 nM
Setting: 8-mer, flanks averaged, mean of replicates
Reading: higher = stronger binding
Measurement: E-score
AAAAGATC: 0.091
GAGCAATA: 0.166
CCGGGACG: -0.378
AGGTGGAC: -0.221
ACTCCGGA: -0.0601
AATCACGT: 0.28
TAACATTA: 0.364
CCCATACC: -0.143
AAAGTCAG: 0.0251
ACAGCTGC: 0.00198
ACAATGCA: 0.233
AAATCGAT: 0.193
ACAATAGA: 0.221
TCTTAGCA: 0.0775
ACTTACCG: -0.043
CATTTTGG: 0.212
TGCGAGCA: -0.0566
GTTCTGGA: 0.00993
AGATCTCG: -0.12
ACGGGTCC: -0.344
TGGTTCAA: 0.0819
GATTTTAC: 0.193
GTATAGCA: 0.222
GAGTCATA: 0.233
ACGGCACT: -0.198

Sample 3
Target: Histone acetyltransferase KAT6A, winged helix 1, GST fusion (KAT6A, Homo sapiens, UniProt Q92794, residues 1-85)
Technique: protein binding microarray
Form: double-stranded DNA, one strand shown
Medium: in vitro
Tested at: not given
Setting: 8-mer, flanks averaged, mean of 2 arrays, mostly near background
Relative to: not given
Reading: higher = stronger binding
Measurement: E-score
Construct (chain): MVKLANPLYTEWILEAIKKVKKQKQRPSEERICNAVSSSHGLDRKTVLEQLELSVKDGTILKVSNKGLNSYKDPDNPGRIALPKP
CCAACGTC: -0.191
GTTGGTTA: -0.168
CTTCGCTA: -0.191
TCGTTCAA: -0.0923
ACAAGTAA: -0.0898
ACTTCTCT: -0.188
ATACTAAC: -0.0221
AAGCCCCG: 0.134
CCTATTGA: -0.209
AACCTGAT: -0.186
CGCCAATA: 0.0137
ACCCATAA: -0.0975
ATCATGTG: -0.198
CGATGTGC: 0.112
CACCATCG: -0.123
TAATTTGA: -0.0487
GAAAGAAA: -0.105
ATAGTCCG: -0.0247
AAGGCCAC: -0.0496
TAGTTGCA: -0.13
CCAATACC: 0.072
CCGCGTCC: 0.31
CCTCCAGC: -0.00235
ATGGTTGA: 0.0377

Sample 4
Target: RING finger protein unkempt homolog, zinc fingers 1-6, GST-SBP tag (UNK, Homo sapiens, UniProt Q9C0B0, residues 30-357)
Sequence of UniProt Q9C0B0 (30-357, looked up): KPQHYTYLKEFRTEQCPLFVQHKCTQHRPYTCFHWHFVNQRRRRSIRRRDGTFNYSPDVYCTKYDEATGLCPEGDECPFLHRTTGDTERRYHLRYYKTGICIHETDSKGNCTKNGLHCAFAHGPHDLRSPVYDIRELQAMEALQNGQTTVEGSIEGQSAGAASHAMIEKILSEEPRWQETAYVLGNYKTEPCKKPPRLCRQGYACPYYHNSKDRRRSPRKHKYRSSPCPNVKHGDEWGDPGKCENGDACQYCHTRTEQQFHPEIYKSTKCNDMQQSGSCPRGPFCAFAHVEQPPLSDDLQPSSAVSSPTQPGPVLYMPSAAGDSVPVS
Technique: RNA Bind-n-Seq
Form: RNA
Medium: in vitro
Tested at: not given
Setting: RNA with constant flanks, ends assumed
Relative to: input RNA pool
Reading: higher = stronger binding
Measurement: bound/input enrichment
Shared flanks, not repeated: GGGAGUUCUACAGUCCGACGAUC … CAACAGAGGAUUGAGCAUCA
GGACGGGCACAGCUGGCGUGACCACCAUGAGUCUGGGAGCACCUCCCACUAUGUCAAACUUCCGCCCUUUGACUAUUCCUCCUGCUAGCGUGAAGCAGCCUCAACAGAGACCAACCGAUA: 0.21 ratio
UUUACUUUUUUUGUGUGUUAAUGGUGUGUGCUCCCUCUCCCUCUCUUCCCUUUCCUGACCUUCCGUCUUUCACUUCCAAUUUUGUGGAAUGAUAUUUUAGGAAUAACGGACUUUUAAAGA: 0.856 ratio
CAGCUUUCAUUACCCCUGAACUUUCUGGGAACUGUAUAUAGAGAGACUAGACAAGCACUCACCGAUAUGAACACCUUGUUUACUCUACUCAAGGUAGACACCCAAAUUAAAGACAAAGUG: 0.243 ratio
AGGUUUCCGGUUCCGGUGUAACGUUCGGGCUCCGUCUCAGGGGCUGAAGUUUGUGAGGUGCCGUUUUUUUGUCCCAUUGGAGCUCUCAUUCUCCAUUUUCUCCGAAAUGGCGCUGUCUAA: 0.079 ratio
CUCUGUCCUGAAUGUGAGAAUCCUGAAACAGAUUUGCAUGUCAAUCCAAAGAAGCAAACAACCGGUAAUUCUUGUAAAGCCUGUGGCUAUCGAGGCAUGCUUGACACACAUCAUAAACUC: 0.175 ratio
AUACCUCCAGAGAGCAGACUGUAUACUAUGCCAAAGCAUUCUCUAAAGACUUGCCAAGAGCUGCCGAAAUUCUUGCUGAUAUAAUACAAAACAGCACAUUGGGAGAAGCAGAGAUUGAAC: 0.178 ratio
AAAGAACUACUUGCAGAGAUAGGUUCAUUAUCUCUUCAUUGUACCAUAGAUGAGAAGCGGUCCGCUGGCUAUUGUCAAGCGUGUGAUGUUCUUGUACCUUCUUCUGAUAAUAACUCUCAA: 0.28 ratio
CGCGUCCUGCGCCGGACUCGGAUUGCCAAAAACCUGGAGUUAGAACAAGUGACUGUCCCAACCGGUGUUUUACUGGUGAUCUUUGAGUCUCGCCCUGACUGUCUACCCCAGGUGGCAGCC: 0.125 ratio

Sample 5
Target: Myc proto-oncogene protein, bHLH-zipper, MAX partner unstated (MYC, Homo sapiens, UniProt P01106, residues 368-449)
Sequence of UniProt P01106 (368-449, looked up): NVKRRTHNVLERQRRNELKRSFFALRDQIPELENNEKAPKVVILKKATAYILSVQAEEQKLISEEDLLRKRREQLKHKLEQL
Technique: protein-binding microarray
Form: double-stranded DNA, one strand shown
Medium: in vitro
Tested at: not given
Setting: k-mer, scored over probes, only values ≥0.25
Reading: higher = stronger binding
Measurement: E-score
AAACCATG: 0.354
ATAACGTG: 0.364
CCGCGCAC: 0.317
AACGCACA: 0.289
ACACGTGA: 0.48
GCGCCACA: 0.274
CACCATGA: 0.314
ACGCGAGA: 0.269
GCGAGCAC: 0.267
ACATGTCT: 0.282
GTGTGGCA: 0.324
CCCACCAC: 0.327
CGTGTTGC: 0.36
CTGTGCGC: 0.282
GTGTGCGA: 0.303
ACCACGTC: 0.333
ACATGCTC: 0.408
ACGTTGCG: 0.259
CGTGTCCC: 0.344
CATGCGCA: 0.417
AGTCGTGC: 0.28
ACGTGAAA: 0.251
GCACGCCA: 0.35
GTGGCGTA: 0.287
ACATGCCT: 0.345

Excerpt of the above (sample 5):
GTGTGGCA: 0.324
GCGCCACA: 0.274
ACGTGAAA: 0.251
CGTGTCCC: 0.344
GTGGCGTA: 0.287
ACGCGAGA: 0.269
